Assay results from different studies.
Every numbered part comes from another study and shows a few of its results, in no order. Changes are numbered by the printed parent chain.

Study 1
Target: RING finger protein unkempt homolog, zinc fingers 1-6, SBP tag (UNK, Homo sapiens, UniProt Q9C0B0, residues 30-357)
Sequence of UniProt Q9C0B0 (30-357, looked up): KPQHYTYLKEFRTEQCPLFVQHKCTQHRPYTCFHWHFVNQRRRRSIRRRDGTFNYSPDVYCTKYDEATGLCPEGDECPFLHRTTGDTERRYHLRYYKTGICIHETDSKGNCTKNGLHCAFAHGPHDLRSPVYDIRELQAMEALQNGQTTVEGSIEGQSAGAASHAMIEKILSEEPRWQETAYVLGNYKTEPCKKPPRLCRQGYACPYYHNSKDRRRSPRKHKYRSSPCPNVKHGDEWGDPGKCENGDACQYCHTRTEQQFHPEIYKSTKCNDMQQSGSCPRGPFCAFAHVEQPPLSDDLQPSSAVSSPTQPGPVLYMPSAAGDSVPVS
Method: RNA Bind-n-Seq
Form: RNA
Medium: in vitro
Concentration: 100 nM
Setting: RNA with constant flanks, vertebrate orthologous sites, ends assumed
Relative to: input RNA pool
Reading: higher = stronger binding
Constant ends, left off below: GGGAGUUCUACAGUCCGACGAUC … CAACAGAGGAUUGAGCAUCA
Sequence	bound/input enrichment [ratio]
GAUUUGGACCUGGGAGCAGAGCUAGGGAGCUGACUAAAGUAAAGCAGACUUGUAAAAUUGUAGCCAUAUGCAGUUGCACAACAACAGUACCAGCAUAGCAGCUGUGCUAAAGUAUUUAUA	0.603
CCCCAGUUUGUAUGUACAUUAUUCAUAUUCCUCGUUGUGUUUCGGGGGGAAAAGACAUUUUAGCCUUUUUUAAAAGUUACUGAUUUAAUUUCAUGUUAUUUGGUUGCAUGAAGUUGCCCU	0.641
GUGAGGGUCUACUGACCACUCGCUGUUACGUCUGGUAUCUGUAAACGCUCUUUUUGUUCUUAGUCUUUUUCUUGUAUAAUUGAUACUCUUUAAAAUCGUUAAUGUAUAACAGGGCUUAUG	3.4
UUACAGUCAUUGAUGGACUCUAUUUUUUUAUUAUUACUUGGACUUUGGUCGUUUUUAUACUAGCAAAAUGUCUUGUUUUAAUUUGUGUUUUUUUUGGGGGGGGGAGGGAGUGAACUUGCU	1.39
CAGCUGAUUCACUCAUUGGGAGAGCUGCACAUAUAGCUGUUCUUGAUUCAGAAAUAUUUUUAGAGAAAUUCUUUCUGGUUGCUGCCCUUAAGUAUUUCCAAUAGAAUGAAAGCAUUGUUA	0.677
UUUCCUUUUUAUUAUGAGUUUCUUUUUUUUUUCCAUUUGCUGAAGUACGCUAUACCAAAUCAGUGAUUGUUAACAAUAAAUUGAUCUGUUAUGGACGUUGCUUAGUGACAUGCAGUUCUU	0.508
CAGGGAGAAGAGUUCACAAACUCAAAGGAAAACUAUUAAGAGUUUCUAAUAGUUAAAAGCUAGGAAAGAUUAGGACAACUUUACAAAUGAGCAAUUAAAAAGAAAAAGAAAAAGGAUAUG	0.74
GAACUAAAGGAGUUAGCAUCUUUAUUUUUAUAUCAAAGAAAAAGGUUAUUUUGAAAUUAUUAGGAUUUUUACAUAACUCUGAAAUCUGUUGCUUUCGUAAACAAAUAGUUUGCUCUGAGG	0.348

Study 2
Target: CCND2, cyclin fold, Cln2 fusion (human)
Method: yeast growth competition, sequencing
Medium: yeast
Setting: weak parent motif
Relative to: not given
Reading: higher = stronger binding
Starting sequence: ASZ1 docking peptide (human); GFGFLLFICKLTF
Variant	normalised enrichment score
F13A	-0.0262
F2A	-0.445
I8A	-0.368
K10A	0.747
C9A	-0.178
G1A	-0.219

Study 3
Target: Ras GTPase-activating protein-binding protein 1, RRM domain (G3BP1, Homo sapiens, UniProt Q13283)
Sequence of UniProt Q13283 (whole entry, looked up): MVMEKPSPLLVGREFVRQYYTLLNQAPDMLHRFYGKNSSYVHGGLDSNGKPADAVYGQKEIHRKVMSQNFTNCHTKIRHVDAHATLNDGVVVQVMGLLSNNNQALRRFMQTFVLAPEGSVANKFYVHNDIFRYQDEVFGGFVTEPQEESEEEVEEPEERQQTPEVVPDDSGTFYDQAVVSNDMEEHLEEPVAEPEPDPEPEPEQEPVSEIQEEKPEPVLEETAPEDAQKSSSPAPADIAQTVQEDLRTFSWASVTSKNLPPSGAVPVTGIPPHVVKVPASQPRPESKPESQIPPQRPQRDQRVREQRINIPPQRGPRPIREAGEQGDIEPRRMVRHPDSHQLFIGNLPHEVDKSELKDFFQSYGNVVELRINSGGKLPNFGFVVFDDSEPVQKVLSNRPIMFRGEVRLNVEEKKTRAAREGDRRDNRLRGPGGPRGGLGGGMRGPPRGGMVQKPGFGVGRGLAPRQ
Method: RNA Bind-n-Seq
Form: RNA
Medium: in vitro
Concentration: 1 µM
Setting: whole 134-nt RNA, ends assumed
Added: 150 mM KCl
Relative to: input library
Reading: higher = stronger binding
Constant ends, left off below: GGGAGUUCUACAGUCCGACGAUC … UGGAAUUCUCGGGUGUCAAGG
Sequence	log2 enrichment
CCUGUGCUACACAUCGUAUGUACCGAAUCGGGGUUUUUUGGGUUUUUUGGGGUUUUUUGGGAAAGUAUUAUGUUACGCCGUUCGGAUCUG	-0.221
AAGUCCUGUGCUACACAUCGUAUGUACCGAAUCGGUUUUUUUGGAAAAAAAGGUGGAAAGUAUUAUGUUACGCCGUUCGGAUCUGCACUU	-0.423
UGGCCCUGGUGGCAUGCGGGGAGGAAGAGGUGGCCUCAUGGAUCGUGGUAGUCCCGGUGGAAUGUUCAGAGGUGGCCGUGGUGGAGACAG	1.12
AAGUCCUGUGCUACACAUCGUAUGUACCGAAUCGGGGUUUUGGUUUUGGUUUUGGGAAAGUAUUAUGUUACGCCGUUCGGAUCUGCACUU	-0.533
ACCAUGCAGGUGGGGAUCUUUGGGAAGUGGGGCAAGGGGGGGAUAGGGAGGGGGGUAACACUUUGGGAACAGGUGGUCCCAGGUCGUUUC	-0.517
GUCCUGUGCUACACAUCGUAUGUACCGAAUCGGGAAAAAGGGAAAAAGGGGAAAAAGGGAAAGUAUUAUGUUACGCCGUUCGGAUCUGCA	0.325
UCAAGUCCUGUGCUACACAUCGUAUGUACCGAAUCGGGGCCGGCCGGGGCCGGGGAAAGUAUUAUGUUACGCCGUUCGGAUCUGCACUUC	-1.27
CAAGUCCUGUGCUACACAUCGUAUGUACCGAAUCGGGGAAGGGAAGGGGAAGGGGAAAGUAUUAUGUUACGCCGUUCGGAUCUGCACUUC	1.21
ACAAGUGGAGGAGAAGAACUUAGAAGAACUAGAGGAGAAAUCUACUACUCCUCCUCCGGCAGAACCUGUUUCUCUGCCACAAGAACCACC	-0.0238

Single results of other studies
Substance	target	assay	test system	setting	scale	quantity	result
PhoQ, residues 284 288 289 292 302 303 SCCLKL	PhoP, residues 12 14 15 18 19 STWGI (Escherichia coli, UniProt P23836)	Sort-seq, measured: YFP reporter	E. coli	PhoQ-PhoP variant library, added: 10 µM Mg2+	relative to: high Mg2+ state, higher = stronger signaling	fold induction	4.09
